Assay results from different studies.
Numbers after ± are the reported error.

| SMILES | cell line | assay | test system | setting | scale | quantity | value |
| --- | --- | --- | --- | --- | --- | --- | --- |
| CC(=O)O[C@@H]1[C@@H](OC(C)=O)[C@H](Sc2sc(C(=O)c3ccc(C)cc3)c(N)c2-c2nc3ccccc3s2)OC[C@H]1OC(C)=O | HEp-2 | cytotoxicity | – | 72 h | – | maximum non-toxic concentration | 90 µg/mL |
| O=c1c(-c2nc3ccccc3s2)cc2c(n1NS(=O)(=O)c1ccc(Cl)cc1)CCCCCC2 | HEp-2 | trypan blue | – | 72 h | – | maximum non-toxic concentration | 130 µg/mL |
| [99Tc+].[C-]#[N+]CC(C)(C)OC.[C-]#[N+]CC(C)(C)OC.[C-]#[N+]CC(C)(C)OC.[C-]#[N+]CC(C)(C)OC.[C-]#[N+]CC(C)(C)OC.[C-]#[N+]CC(C)(C)OC | rat sandwich-cultured hepatocytes | – | – | 20 min | – | total efflux | 64 ± 8.2% |
| C[C@H](CCC=O)[C@@H]1CC[C@]2(C)C3=C(CC[C@@]12C)[C@@]1(C)CC[C@H](O)C(C)(C)[C@@H]1CC3 | U-251 | cell growth or viability, SRB | – | 50 µM | – | inhibition | 59.8% |
| CC[N+]1=C(/C=C/c2ccc(OCCCl)cc2)C(C)(C)c2c1ccc1ccccc21 | BEAS-2B | – | – | 5 µM, 30 min, 37 °C | – | cell membrane permeability | 20.5% |
| CC(=O)[O-].F[P-](F)(F)(F)(F)F.[Co+2].c1ccc(CN2CCCN3CCN(CCCN(Cc4ccccc4)CC3)CC2)cc1 | THP-1 | cytotoxicity | – | – | – | IC90 | > 15 µM |
| OC[C@H]1O[C@@H](OCCCC(F)(F)C(F)(F)C(F)(F)C(F)(F)F)[C@H](O)[C@@H](O)[C@@H]1O | B16-F10 | cytotoxicity, MTT | – | 24 h | – | EC50 | > 250 µM |
| C=C(c1ncc(C(=O)O)cn1)c1cc2c(cc1C)C(C)(C)CCC2(C)C | TK6 | cytotoxicity, GreenScreen | – | with: rat liver S9 | – | lowest effective concentration | 213 µg/mL |
| CC/C=C\C/C=C\C/C=C\C/C=C\C/C=C\C/C=C\CCC(=O)OC(CO)COP(=O)([O-])OCC[N+](C)(C)C (centres unmarked) | human brain-like endothelial cell monolayer | LC-MS | in vitro BBB model | 10 µM, 180 min, pH 7.4 | – | Papp | 63.7 ×10⁻⁶ cm/s |
| Nc1ccn([C@@H]2O[C@H](CO)[C@@H](O)[C@H]2F)c(=O)n1 | SNB-78 | sulforhodamine B | – | 11 days, galactose medium | – | CC50 | 26 µM |
| C[C@@H]1O[C@@H](O[C@H]2[C@H](O[C@H]3CC[C@@]4(C)C(CC[C@]5(C)C4CC=C4C6CC(C)(C)CC[C@]6(C(=O)O[C@@H]6O[C@H](CO)[C@@H](O)[C@H](O)[C@H]6O)CC[C@]45C)[C@]3(C)CO)OC[C@H](O)[C@@H]2O)[C@H](O)[C@H](O[C@@H]2OC[C@@H](O)[C@H](O)[C@H]2O)[C@H]1O (some centres unmarked) | HepG2 | cell growth or viability, CCK-8 | – | 10 µM, 24 h | – | viability | 96.3% |
| CC(C)=CCC1CC(=O)C(C)=CC2C=C(C)CC(c3ccccc3)C2C(=O)C2=C(O)C(C)(CC=C1C)C(=O)C(C)(C)C2=O (centres unmarked) | HEp-2 | – | – | concentration not given, at antiviral concentrations | – | cytotoxicity | not toxic |
| COc1ccc(S(=O)(=O)NCc2c[nH]nc2-c2cccs2)cc1 | HCT-8 | – | – | 100 µM, 24 h | – | growth inhibition | ~15% |
| Cc1ccc(C(C)C)cc1.[Cl-].[Cl][Ru+].[Ru+].c1ccc(-c2cn(CCCCOc3ccccc3-c3nc4ccccc4s3)nn2)nc1 | MCF7 | annexin V/PI flow cytometry | – | 4 µM, 24 h | – | viable cells | 75.2% |
| Cc1cc(C#N)cc(C)c1Oc1nc(NC2CCN(Cc3ccc(S(C)(=O)=O)cc3)CC2)nc2ccccc12 | TZM-bl | cell growth or viability, XTT | – | – | – | CC50 | > 0.231 µM |
| CC/C(=C(\c1ccc(O)cc1)c1ccc(OCCN(C)CCOCCOCCOCCOCCOCCOCCOCCN(C)CCOc2ccc(/C(=C(/CC)c3ccccc3)c3ccc(O)cc3)cc2)cc1)c1ccccc1 | U2OS transfected with ERβ | – | – | 10 µM, cytotoxicity | – | cell density | 9% |
| COc1ccc(NC(=O)N2CCCN3CCC(c4ccc(C#Cc5ccccc5)cc4)C3C2)cc1 (centres unmarked) | MDCK-MDR1 | – | Caco-2 | – | – | Papp A→B | 0.45 ×10⁻⁶ cm/s |
| CC/C(=C(\c1ccc(O)cc1)c1ccc(OCCN(C)CCOCCOCCN(C)CCOc2ccc(/C(=C(/CC)c3ccccc3)c3ccc(O)cc3)cc2)cc1)c1ccccc1 | U2OS transfected with ERβ | – | – | 10 µM, cytotoxicity | – | cell density | 78% |
| CC(=O)OC[C@H]1O[C@@H](Sc2sc(C(=O)c3ccc(C)cc3)c(N)c2-c2nc3ccccc3s2)[C@H](OC(C)=O)[C@@H](OC(C)=O)[C@@H]1OC(C)=O | HEp-2 | cytotoxicity | – | 72 h | – | maximum non-toxic concentration | 90 µg/mL |
| O=c1ccn([C@@H]2O[C@H](CO)[C@@H](O)[C@H]2F)c(=O)[nH]1 | iCell cardiomyocytes | sulforhodamine B | – | 11 days, galactose medium | – | CC50 | > 250 µM |
| CC(=O)OC[C@H]1O[C@@H](Sc2sc(C(=O)c3ccc(Br)cc3)c(N)c2-c2nc3ccccc3s2)[C@H](OC(C)=O)[C@@H](OC(C)=O)[C@H]1OC(C)=O | HEp-2 | cytotoxicity | – | 72 h | – | maximum non-toxic concentration | 90 µg/mL |
| Cc1cc(/C=C/C#N)cc(C)c1Oc1nc(NC2CCN(Cc3ccc(S(N)(=O)=O)cc3)CC2)nc2ncccc12 | TZM-bl | cell growth or viability, XTT | – | – | – | CC50 | > 52.7 µM |
| CC(=O)N[C@H](C(=O)N[C@H](C(=O)N[C@@H](CCCNC(=N)N)C(=O)N1Cc2ccccc2C[C@H]1C(=O)N[C@@H](Cc1ccccc1)C(N)=O)C1CCCCC1)C(C)C | human PBMC | Bio-Plex multiplex, measured: IFN-g | – | 500 µg/mL, 24 h | – | cytokine level | 26.9 ± 6.2 pg/mL |
| CCCCn1cc(C(=O)O)c(=O)c2cc(F)c3[nH]nnc3c21 | SW-620 | cell growth, SRB | – | 72 h | – | IC50 | 33.1 ± 2.08 µg/mL |

| SMILES | cell line | assay | test system | setting | scale | quantity | value |
| --- | --- | --- | --- | --- | --- | --- | --- |
| COC(=O)NC(C(=O)NN(Cc1ccc(Br)cc1)CC(O)(Cc1ccccc1)C(=O)Nc1cccc(O)c1C)C(C)(C)C (centres unmarked) | 2/4/A1 | – | – | pH 7.4 | – | Papp | 374 ×10⁻⁶ cm/s |
| OC[C@H]1O[C@@H](n2cnc3c(O)ncnc32)[C@H](F)[C@@H]1O | SkMC | sulforhodamine B | – | 11 days, glucose medium | – | CC50 | > 250 µM |
| C=CC(=C)CC[C@]1(C)[C@H](C)C[C@H](O)[C@@]23C(=C[C@H](OC(=O)C(C)C)C[C@@H]12)[C@@H](OC(C)=O)O[C@H]3OC(C)=O | KB-VIN (P-gp-overexpressing) | cell growth, SRB | – | – | – | IC50 | 0.98 µM |
| CC(C)=CCCC(C)C1CCC2(C)C3=C(CCC12C)C1(C)CCC(=O)C(C)(C)C1CC3 (centres unmarked) | HCT-15 | cell growth or viability, SRB | – | 50 µM | – | inhibition | 12.2% |
| C/C=C/CNC(=N)NCCCCCCCCN1CCCc2cc(Cl)ccc2COc2ccccc2CNC(=N)NC1=O | normal human dermal fibroblasts | MTT | – | 48 h | – | CC50 | 25.4 ± 1.67 µg/mL |
| O=C(Nc1ccc(Oc2ccc(F)cc2)cc1)c1cc2ccc(Cl)cc2s1 | C2C12 differentiated myotubes | – | – | 10 µM, 72 h | – | viability | 76% |
| Nc1ncnc2c1ncn2[C@@H]1O[C@H](CO)[C@@H](O)[C@H]1F | iCell cardiomyocytes | sulforhodamine B | – | 11 days, galactose medium | – | CC50 | > 250 µM |
| C=C(c1cc(F)c(C(=O)O)c(F)c1)c1cc2c(cc1C)C(C)(C)CCC2(C)C | TK6 | cytotoxicity, GreenScreen | – | without S9 | – | lowest effective concentration | 0.74 µg/mL |
| Cc1cc(C#N)cc(C)c1Oc1nc(NC2CCN(Cc3ccc(Cl)cc3)CC2)nc2ccccc12 | TZM-bl | cell growth or viability, XTT | – | – | – | CC50 | > 0.251 µM |
| O=c1c(Br)c2oc3c(CN(Cc4ccccn4)Cc4cnccn4)c(O)ccc3nc-2c2ccccc12 | rat neural stem cells | colocalisation with ER-Tracker | – | – | – | Pearson's coefficient | 0.699 |
| O=c1c(-c2nc3ccccc3s2)cc2c(n1NS(=O)(=O)c1ccccc1)CCCCCC2 | HEp-2 | trypan blue | – | 72 h | – | maximum non-toxic concentration | 140 µg/mL |
| Cc1nn(-c2ccc(S(=O)(=O)N[C@@H](CO)CC(C)C)cc2)c2nn3nnnc3nc12 | human peripheral blood lymphocytes | DNA damage, alkaline comet | – | 1 µM, 24 h | – | tail DNA | 13.1 ± 0.86% |
| OC[C@H]1O[C@H](OCCCCCCCCCCC(F)(F)C(F)(F)C(F)(F)C(F)(F)C(F)(F)C(F)(F)C(F)(F)C(F)(F)F)[C@H](O)[C@@H](O)[C@@H]1O | B16-F10 | cytotoxicity, MTT | – | 24 h | – | EC50 | > 250 µM |
| F[P-](F)(F)(F)(F)F.F[P-](F)(F)(F)(F)F.[Cu+2].c1ccc(CN2CCCNCCN(Cc3ccccc3)CCCNCC2)cc1 | THP-1 | cytotoxicity | – | – | – | IC90 | > 15 µM |
| COC1C=COC2(C)Oc3c(C)c(O)c4c(c3C2=O)C2=NC3(CCN(CC(C)C)CC3)NC2=C(NC(=O)C(C)=CC=CC(C)C(O)C(C)C(O)C(C)C(OC(=O)c2cncnc2)C1C)C4=O (centres unmarked) | THP-1 derived macrophages | – | – | – | relative to: intracellular over extracellular | intracellular/extracellular ratio | 25 |
| Cc1ccccc1C(c1c[nH]c(=O)[nH]c1=O)c1c[nH]c(=O)[nH]c1=O | Ba/F3 | – | – | 1 µg/mL | – | cytotoxicity | not toxic |
| OC[C@H]1O[C@@H](Oc2ccc(O)cc2)[C@H](O)[C@@H](O)[C@@H]1O | B16-F10 | CCK-8 | – | 200 µM, 72 h | – | cytotoxicity | not toxic |
| CNc1c(C)n(C)n(-c2ccccc2)c1=O | HepaRG PXR knockout | measured: CYP2C9 | – | 300 µM, 72 h | relative to: untreated | mRNA level | increased |
| c1ccc(CN2CCNCCN(Cc3ccccc3)CCNCC2)cc1 | THP-1 | cytotoxicity | – | – | – | IC90 | > 25 µM |
| Cc1cc(C#N)cc(C)c1Oc1nc(NC2CCN(Cc3ccc(S(N)(=O)=O)cc3)CC2)nc2ncccc12 | TZM-bl | cell growth or viability, XTT | – | – | – | CC50 | 52.1 µM |
| OCC1CSC(c2ccc(O)cc2O)S1 (centres unmarked) | B16-F10 | MTT | – | up to 25 µM, 24 h | – | cytotoxicity | not toxic |
| Cc1cc(/C=C/C#N)cc(C)c1Oc1nc(NC2CCN(Cc3ccc(S(C)(=O)=O)cc3)CC2)nc2ncccc12 | TZM-bl | cell growth or viability, XTT | – | 96 h | – | CC50 | 14.2 µM |
| COC1C=COC2(C)Oc3c(C)c(O)c4c(c3C2=O)C2=NC3(CCN(CC(C)C)CC3)NC2=C(NC(=O)C(C)=CC=CC(C)C(O)C(C)C(O)C(C)C(OC(=O)Nc2cscn2)C1C)C4=O (centres unmarked) | THP-1 derived macrophages | – | – | – | relative to: intracellular over extracellular | intracellular/extracellular ratio | 93 |

For quick reference, copied from above:
| SMILES | cell line | assay | test system | setting | scale | quantity | value |
| --- | --- | --- | --- | --- | --- | --- | --- |
| Cc1cc(C#N)cc(C)c1Oc1nc(NC2CCN(Cc3ccc(S(C)(=O)=O)cc3)CC2)nc2ccccc12 | TZM-bl | cell growth or viability, XTT | – | – | – | CC50 | > 0.231 µM |
| CC/C(=C(\c1ccc(O)cc1)c1ccc(OCCN(C)CCOCCOCCOCCOCCOCCOCCOCCN(C)CCOc2ccc(/C(=C(/CC)c3ccccc3)c3ccc(O)cc3)cc2)cc1)c1ccccc1 | U2OS transfected with ERβ | – | – | 10 µM, cytotoxicity | – | cell density | 9% |
| COc1ccc(NC(=O)N2CCCN3CCC(c4ccc(C#Cc5ccccc5)cc4)C3C2)cc1 (centres unmarked) | MDCK-MDR1 | – | Caco-2 | – | – | Papp A→B | 0.45 ×10⁻⁶ cm/s |
| CC/C(=C(\c1ccc(O)cc1)c1ccc(OCCN(C)CCOCCOCCN(C)CCOc2ccc(/C(=C(/CC)c3ccccc3)c3ccc(O)cc3)cc2)cc1)c1ccccc1 | U2OS transfected with ERβ | – | – | 10 µM, cytotoxicity | – | cell density | 78% |
| CC(=O)OC[C@H]1O[C@@H](Sc2sc(C(=O)c3ccc(C)cc3)c(N)c2-c2nc3ccccc3s2)[C@H](OC(C)=O)[C@@H](OC(C)=O)[C@@H]1OC(C)=O | HEp-2 | cytotoxicity | – | 72 h | – | maximum non-toxic concentration | 90 µg/mL |
